# Assay results gathered from unrelated publications.
# Compare with care: the assays were run in different laboratories. Several values in a cell are separate wells, animals, samples, runs or records. ± gives the spread as reported.
Compound,test,system,setting,scale,endpoint,value
CSCC[C@H](N)C(=O)N[C@@H](C)C(=O)N[C@@H](CCCNC(=N)N)C(=O)N[C@@H](CCCNC(=N)N)C(=O)N[C@@H](CC(=O)O)C(=O)N[C@@H](CCCCN)C(=O)N[C@H](C(=O)N[C@@H](CC(=O)O)C(=O)N[C@@H](Cc1ccccc1)C(=O)N[C@@H](C)C(=O)N[C@@H](CCCNC(=N)N)C(=O)N[C@@H](CCCNC(=N)N)C(=O)N[C@@H](CCCNC(=N)N)C(=O)N[C@@H](CCCNC(=N)N)C(=O)NCCCCCC(=O)NCCCCC(NC(=O)CCCCCNC(=O)[C@H](CCCNC(=N)N)NC(=O)[C@H](CCCNC(=N)N)NC(=O)[C@H](CCCNC(=N)N)NC(=O)[C@H](CCCNC(=N)N)NC(=O)[C@H](C)NC(=O)[C@H](Cc1ccccc1)NC(=O)[C@H](CC(=O)O)NC(=O)[C@@H](NC(=O)[C@H](CCCCN)NC(=O)[C@H](CC(=O)O)NC(=O)[C@H](CCCNC(=N)N)NC(=O)[C@H](CCCNC(=N)N)NC(=O)[C@H](C)NC(=O)[C@@H](N)CCSC)[C@@H](C)O)C(=O)NCCCCC(NC(=O)C(CCCCNC(=O)CCCCCNC(=O)[C@H](CCCNC(=N)N)NC(=O)[C@H](CCCNC(=N)N)NC(=O)[C@H](CCCNC(=N)N)NC(=O)[C@H](CCCNC(=N)N)NC(=O)[C@H](C)NC(=O)[C@H](Cc1ccccc1)NC(=O)[C@H](CC(=O)O)NC(=O)[C@@H](NC(=O)[C@H](CCCCN)NC(=O)[C@H](CC(=O)O)NC(=O)[C@H](CCCNC(=N)N)NC(=O)[C@H](CCCNC(=N)N)NC(=O)[C@H](C)NC(=O)[C@@H](N)CCSC)[C@@H](C)O)NC(=O)CCCCCNC(=O)[C@H](CCCNC(=N)N)NC(=O)[C@H](CCCNC(=N)N)NC(=O)[C@H](CCCNC(=N)N)NC(=O)[C@H](CCCNC(=N)N)NC(=O)[C@H](C)NC(=O)[C@H](Cc1ccccc1)NC(=O)[C@H](CC(=O)O)NC(=O)[C@@H](NC(=O)[C@H](CCCCN)NC(=O)[C@H](CC(=O)O)NC(=O)[C@H](CCCNC(=N)N)NC(=O)[C@H](CCCNC(=N)N)NC(=O)[C@H](C)NC(=O)[C@@H](N)CCSC)[C@@H](C)O)C(N)=O)[C@@H](C)O (stereo partly shown),,"C57BL/6 mouse female, heart","dose not given, 6 h",baseline: total,tissue distribution,0.95% and 0.67% and 1.01%
CC[C@H](C)[C@H](NC(=O)[C@H](CCCCN)NC(=O)CNC(=O)[C@H](CC(C)C)NC(=O)[C@H](Cc1ccccc1)NC(=O)[C@H](CCCCN)NC(=O)[C@H](CO)NC(=O)[C@H](Cc1ccccc1)NC(=O)[C@H](Cc1c[nH]c2ccccc12)NC(=O)[C@H](CCC(N)=O)NC(=O)[C@@H](NC(=O)[C@H](Cc1ccccc1)NC(=O)CCCCCNC(=O)CN1CCN(CC(=O)O)CCN(CC(=O)O)CCN(CC(=O)O)CC1)C(C)C)C(=O)N[C@@H](CCC(=O)O)C(=O)N1CCC[C@H]1C(=O)N[C@@H](CC(=O)O)C(=O)N[C@H](C(=O)N[C@@H](CO)C(=O)N[C@@H](CCC(N)=O)C(=O)N[C@H](C(=O)N[C@@H](CCC(N)=O)C(=O)N[C@@H](CC(=O)O)C(=O)N1CCC[C@H]1C(=O)N[C@@H](CC(N)=O)C(=O)N[C@@H](CC(=O)O)C(=O)N[C@@H](CCC(N)=O)C(=O)N[C@@H](Cc1ccc(O)cc1)C(=O)N[C@@H](CCC(=O)O)C(=O)N1CCC[C@H]1C(=O)N[C@@H](Cc1ccccc1)C(=O)O)C(C)C)C(C)C [copper-64 labelled],,"BALB/c mice, male, CT26 tumour-bearing, liver","2 h, vehicle-treated",,tissue uptake,8.54 ± 0.8 %ID/g
CC(C)=CCC/C(C)=C\CCn1cc(CC(P(=O)(O)O)P(=O)(O)O)nn1,PAMPA,phosphate buffer,"5 µg/mL, 5 h, room temperature",,Papp,0.086 ± 0.007 ×10⁻⁶ cm/s
C=Cc1c(C)c2cc3nc(c(CC(=O)[O-])c4[n-]c(cc5nc(cc1[n-]2)C(C)=C5CC)c(C)c4C(=O)[O-])C(CCC(=O)[O-])C3C.[Cu+2].[Na+].[Na+].[Na+] (stereo not shown),,"Wistar rat, female","oral, 1000 mg/kg daily, 28 days",,serum creatinine,0.42 ± 0.1 mg/dL
CCCC[C@H]1C(=O)N(C)[C@@H](CCCC)C(=O)N[C@@H](CCCNC(=O)CN2CCN(CC(=O)O)CCN(CC(=O)O)CCN(CC(=O)O)CC2)C(=O)N[C@H](C(=O)NCC(N)=O)CSCC(=O)N[C@@H](Cc2ccc(O)cc2)C(=O)N(C)[C@@H](C)C(=O)N[C@@H](CC(N)=O)C(=O)N2CCC[C@H]2C(=O)N[C@@H](Cc2c[nH]cn2)C(=O)N[C@@H](CC(C)C)C(=O)N(C)CC(=O)N[C@@H](Cc2c[nH]c3ccccc23)C(=O)N[C@@H](CO)C(=O)N[C@@H](Cc2c[nH]c3ccccc23)C(=O)N1C [gallium-68 labelled],,"NOD/SCID mice, CHO-hPD-L1 xenograft, tumour over blood","iv, dose not given, 10 min",baseline: tumour over blood,tissue-to-tissue ratio,0.31 ± 0.06
COCC1CN(C2CCN(c3cc(OC)c(Nc4ncc(Br)c(Nc5ccc6c(c5P(C)(C)=O)OCCO6)n4)cc3C)CC2)C1,,EGFR-mutant NSCLC patients,"oral, 90 mg once daily",,treatment-related AEs leading to death,0%
CN[C@H](CC(C)C)C(=O)N[C@H]1C(=O)N[C@@H](CC(N)=O)C(=O)N[C@H]2C(=O)N[C@H]3C(=O)N[C@H](C(=O)N[C@H](C(=O)O)c4cc(O)cc(O)c4-c4cc3ccc4O)[C@H](O)c3ccc(c(Cl)c3)Oc3cc2cc(c3O[C@@H]2O[C@H](CO)[C@@H](O)[C@H](O)[C@H]2O[C@H]2C[C@](C)(NCc3ccc(-c4ccc(Cl)cc4)cc3)[C@H](O)[C@H](C)O2)Oc2ccc(cc2Cl)[C@H]1O,,"mouse, plasma","intravenous, 10 mg/kg",,Tmax,4.98 min
CC(=O)NCCCC[C@@H]1NC(=O)[C@H](Cc2c[nH]c3c(C)cccc23)NC(=O)[C@H]([C@@H](C)O)NC(=O)[C@H](CC(N)=O)NC(=O)[C@@H](NC(C)=O)C(C)(C)SSC(C)(C)[C@@H](C(=O)N[C@@H](Cc2ccc(OCCN)cc2)C(=O)N[C@@H](Cc2ccc3ccccc3c2)C(=O)NC2(C(=O)N[C@@H](CCC(=O)O)C(=O)N[C@@H](CC(N)=O)C(=O)N[C@@H](Cc3cccnc3)C(=O)N(C)CC(N)=O)CCOCC2)NC1=O,,human,"oral, 300 mg multiple doses, day 10",,apparent clearance CL/F,6100 ± 2100 L/h
CC(C)[C@H](NC(=O)[C@@H](NC(=O)[C@H](CCCNC(=N)N)NC(=O)[C@H](CCCNC(=N)N)NC(=O)[C@H](CCCNC(=N)N)NC(=O)[C@H](CCC(N)=O)NC(=O)[C@H](CCCNC(=N)N)NC(=O)[C@H](CCCNC(=N)N)NC(=O)[C@H](CCCCN)NC(=O)[C@H](CCCCN)NC(=O)[C@H](CCCNC(=N)N)NC(=O)CN)[C@@H](C)O)C(=O)N[C@H](C(=O)N[C@@H](CO)C(=O)N1CCC[C@H]1C(=O)O)[C@@H](C)O,,"ICR mouse, male, right kidney","intranasal, 10 mg/kg daily, 4 weeks",,kidney weight,0.299 ± 0.027 g
N#[11C]c1ccc(-c2csc(NN=C3CCCC3)n2)cc1,,"C57BL/6 mice, male, pancreas","intravenous, 3 MBq, 15 min",,radioactivity uptake,2.87 ± 0.08 %ID/g
CCN(CCCCOc1ccc(CCC(=O)N2CCC(Cc3ccccc3)CC2)cc1OC)Cc1ccccc1,,"Sprague-Dawley rats, both sexes, urine","oral gavage, 25 mg/kg, 12 to 24 h",,excreted amount,365 ± 163 ng
O=C1NC2(CC2)COc2ncc(F)cc2[C@H]2COCCN2c2ccn3ncc1c3n2,,"Sprague-Dawley rats, female, blood","oral, 10 mg/kg/day, end of treatment, 4-week subacute toxicity",,basophil percentage,0.05 ± 0.07%
CC(C)C[C@H](NC(=O)[C@H](Cc1ccc(O)cc1)NC(=O)[C@H](C)NC(=O)[C@H](CC(N)=O)NC(=O)[C@H](CC(C)C)NC(=O)[C@H](C)NC(=O)[C@@H](NC(=O)[C@H](CCCCN)NC(=O)CNC(=O)[C@@H](NC(=O)[C@H](CCCCN)NC(=O)[C@H](CCCCN)NC(=O)CNC(=O)[C@@H](NC(=O)[C@H](Cc1c[nH]cn1)NC(=O)[C@@H](NC(=O)[C@H](C)NC(=O)[C@H](CCCCN)NC(=O)[C@H](CCCCN)NC(=O)[C@H](Cc1ccccc1)NC(=O)[C@H](Cc1c[nH]c2ccccc12)NC(=O)[C@H](CCCCN)NC(=O)[C@H](CCCCN)NC(=O)[C@H](CC(C)C)NC(=O)CN)C(C)C)C(C)C)C(C)C)C(C)C)C(N)=O,,"zebrafish embryos 4 hpf, E3 medium",1 h,,acute toxic concentration,5 µM

# Some of these lines once more:
Compound,test,system,setting,scale,endpoint,value
C=Cc1c(C)c2cc3nc(c(CC(=O)[O-])c4[n-]c(cc5nc(cc1[n-]2)C(C)=C5CC)c(C)c4C(=O)[O-])C(CCC(=O)[O-])C3C.[Cu+2].[Na+].[Na+].[Na+] (stereo not shown),,"Wistar rat, female","oral, 1000 mg/kg daily, 28 days",,serum creatinine,0.42 ± 0.1 mg/dL
